Measurements pooled from the literature.
Each numbered part is a random draw from the data of one study; scales do not carry over between parts. Substitutions count along the parent as printed.

Block 1 — technique: RNA Bind-n-Seq; form: RNA; medium: in vitro; concentration: 365 nM; relative to: no-protein control; direction: higher = stronger binding
Target: RNA binding protein fox-1 homolog 2, RRM domain, GST-SBP tag (RBFOX2, Homo sapiens, UniProt O43251-10, residues 100-194)
Notes: natural RNA segment, single round, ends assumed
All sequences stand within: GGGAGUUCUACAGUCCGACGAUC … UGGAAUUCUCGGGUGCCAA
Residues (chain): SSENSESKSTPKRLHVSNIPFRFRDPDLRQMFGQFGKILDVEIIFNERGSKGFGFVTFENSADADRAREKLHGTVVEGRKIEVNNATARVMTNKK
Under “RBNS enrichment (R)”, `GAGCUGAGACUGGUUCCCUGAUGCUCCGUCAGCUUCCCUAUGUGGCUGGCUCAUUAUUUUCCUCAAAGCCUUCUGUCUUUCCUGUGCCUGCCUGUGACUCUUUGCACACU` is recorded as 1.57.
`UUUUUUUUCUACUGAUCUACCCAAGUGUAGGUGAGCCGCAGCAGGGAGUGAUUCCUAGAAGACGGAUCAGUCUAGUCUGGCAGUCAAGGCUCAGGAGUUUGGGAGAGGGG`: “RBNS enrichment (R)” 0.429.
`AGUUGACUGUAAGUGCUUCCCUGUCAUCCAUGUGCAAUUUCCCGACAUUCCACCUCCAUCUCUGCUUGUGUCCCUCACAUCAGCAUUAAUCUUUGUUUCCCUCACACUUA` — result for “RBNS enrichment (R)”: 1.09.
`GAAUUUAAAAAAUAUGUAACUGCUGUUUAUACAUUGGCUCCUUACUGCUUAUUAAUCUGUAUUGUACACAUGAUGAAAUGAAGCAGAAGCUGGGAGUCGGCCUUUCCUCU`: “RBNS enrichment (R)” 0.302.
For `AUGAACUGUAUUUUUACAAUGAUCGCCGCAUGACUAUUUCACACCCUUUUUAUACUCCAUAUCUGUCUUCCAGAAACGUCACCUGCCUUUCUCCUGUGGUCUCUUAAUCC`, “RBNS enrichment (R)” read 0.983.
`AUUUUGUAUGUUUUUUUAAAUGUGUCUUUGAUGCAUACUUUAGAAGCACACUGGCUCGCGGUUUCCAUCCCUCUUGCCUUGGGACACUCUUGAGGCUGGCAGCCCUCCUG` — result for “RBNS enrichment (R)”: 0.306.
`GAAUCAUGUUCCAGCUGCUUGACCCUACCGUGUGGGUUCAGAGCUCGUUUGGGCGUAACAACUAAGUCUCUUUCCAGAUCAGUAUAAUAAAGGAGUGAUGUGCAAUACUU` — result for “RBNS enrichment (R)”: 0.615.
`UAUGGUUUACUCACUUAGGGAAAGGGCUUAGGUGUUAGGCUGUGGGCUGCUUCUCCCUAACCAUCCAUUGUGCAGACUUCUCAUCUAAAAAGGUUGGUGGCUUUUGCUUG` — result for “RBNS enrichment (R)”: 0.541.
For `UAGAGAGAUUUACCAUAUAACUUAUGGACUUUGAAAUGUCUGUCCUUUUAAGGCAGCAGGGAGGCCUGGGUGCGAAGCAUGUUGGCUUGGCCCUUCACGGUCCUGGAGGG`, “RBNS enrichment (R)” read 10.
`UCCAAUUUAACUCUCUGAAUAUGUUGCCAUAAUUGGAGCUUUUUCCUUCUUCUGAUUCCUUUAAGCUCUCCCACCCUUGUGGACUUGGUAGUUAAGAGGUUCCACAGAGU` — result for “RBNS enrichment (R)”: 0.324.
`GUUGAAGAUCUAUCUAUGCAUUUUUUUACACUUACACAUAAACUGGUAUUUUCGAACAAUAGGAAACUAUUUUUUCUCCUUUUUUUACAGUUUUAGUACGUAUCUGGCUU` — result for “RBNS enrichment (R)”: 0.652.
`UCUCUAUUUUUCUGCAAAGGUCAAAAGACCCUGGUGUUGGGGGCCCUUUAGAGGGUGUGCUUUGGACGCUGACCUCUUAGGGCUUUAGGACAGAGGGACGAUGUUGAGUC` — result for “RBNS enrichment (R)”: 0.308.

Block 2 — technique: protein-binding microarray; form: double-stranded DNA, one strand shown; medium: in vitro; concentration: 0.8 µM; notes: whole 60-bp probe, no competitor; direction: higher = stronger binding; all sequences stand within: … GTCTTGATTCGCTTGACGCTGCTG
Target: Centromere-binding protein 1, full length, N-terminal tag (CBF1, Saccharomyces cerevisiae, UniProt P17106, residues 1-351)
Chain of UniProt P17106 (whole entry, looked up): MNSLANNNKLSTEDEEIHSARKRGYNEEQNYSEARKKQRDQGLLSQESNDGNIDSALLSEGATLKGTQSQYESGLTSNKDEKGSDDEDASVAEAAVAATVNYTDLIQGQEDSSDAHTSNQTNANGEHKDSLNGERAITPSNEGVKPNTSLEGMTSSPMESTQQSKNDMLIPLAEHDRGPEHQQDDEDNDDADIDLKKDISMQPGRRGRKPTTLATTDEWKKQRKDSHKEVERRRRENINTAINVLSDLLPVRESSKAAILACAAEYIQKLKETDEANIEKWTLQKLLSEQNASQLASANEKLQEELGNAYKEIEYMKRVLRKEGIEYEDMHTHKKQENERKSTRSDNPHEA
The fluorescence intensity of `CCTAACTACTATAGTCAGCTGACATAGCTTCGTACA` is reported as 7090 a.u.
`CTATGAAGGTTTGTACATGTGCGAGTTCATGAGTTC` gave a fluorescence intensity of 711 a.u.
`CTACCCGCGAATTTTCACATGCACTTTAATCGATTC` has a fluorescence intensity of 657 a.u.
The fluorescence intensity of `GAAACTATAATGCATGACATGATGAATATGTAGTAG` is reported as 627 a.u.
The fluorescence intensity of `TGTACGAAGCTATAGCACGTGATTATAGTAGTTAGG` is reported as 14600 a.u.
For `GAATCTTCCAAAAATCACGTTGATGCCACCAGGTAG`, the fluorescence intensity was 1010 a.u.
For `CTAAAAAAGAAGTTGAACGTGATTTCATTTGTTTTC`, the fluorescence intensity was 1100 a.u.
With `GAAAGGCGGGTTTGTGAGGTGAAAAAAAATATATAG` the fluorescence intensity was 587 a.u.
With `GAATTTAGTTTTTTTCTGGTGGTTGTCAAGCCTTAG` the fluorescence intensity was 503 a.u.
With `GAAGCAATGCTTCATCTGATGTTTACACAGAATTAG` the fluorescence intensity was 504 a.u.
For `CTAGAATTCGTAGGTGCAGGTGAGCATATTGCCTTC`, the fluorescence intensity was 543 a.u.
The fluorescence intensity of `GAAGTGAAAAATTATCACGATGGCAAAAGAGAGTAG` is reported as 663 a.u.
For `GAACCGCTTAATGATCACGCACAAAAAAAAAAATAG`, the fluorescence intensity was 1730 a.u.
`CTATTAACTAGTTCTTGCCTGATGCCGTAATTTTTC` gave a fluorescence intensity of 482 a.u.
The fluorescence intensity of `GAACCAATTGTTAATCACACCACCGATAGGCAATAG` is reported as 1310 a.u.
`GAATGAACGATGAAGAACACCACCATTTCAGAATAG` gave a fluorescence intensity of 501 a.u.
`CTAACATATATTTAATGCGTCACCTGCCTATTCTTC` has a fluorescence intensity of 2170 a.u.
With `TGTACGAAGCTATGGCGCGTGTTTATAGTAGTTAGG` the fluorescence intensity was 575 a.u.
The fluorescence intensity of `CTACCCCCATGCACTGATGGCGCTTGTATATAGTTC` is reported as 517 a.u.
`GAAAACTGAGTTCCAAACGTGACAAGGTAAGTTTAG` has a fluorescence intensity of 886 a.u.
With `GAATGGTGAAAAAGTATGGTGACGTCTTTACTTTAG` the fluorescence intensity was 587 a.u.
The fluorescence intensity of `GAAATGTGACAAGAGGTGGTGACATAAAAATAATAG` is reported as 694 a.u.
With `CTAATCCGGAAAAACTACGTGACAGGAACGATGTTC` the fluorescence intensity was 608 a.u.
With `GAACACCCACTACATCAGCTCGATGATGAACCTTAG` the fluorescence intensity was 494 a.u.
`GAACAAAGCTCTTAAGTCGTGATCTTCTCTTCTTAG` gave a fluorescence intensity of 600 a.u.

Block 3 — target: CCND1, cyclin fold, Cln2 fusion (human); technique: yeast growth competition, sequencing; medium: yeast; notes: weak parent motif; relative to: not given; direction: higher = stronger binding
Parent: AKAP12 docking peptide (human); GSPLKKLFTSTGL
`GSPLKKLFTSTAL [G12A]` — result for “normalised enrichment score”: 0.0523.
`GSPLAKAFTSTGL [K5A L7A]`: “normalised enrichment score” 0.133.
`GSPLKALFTSTGL [K6A]` — result for “normalised enrichment score”: 0.701.
Under “normalised enrichment score”, `GSPLRKLFTSTGL [K5R]` is recorded as 0.307.
Under “normalised enrichment score”, `ASPLKKLFTSTGL [G1A]` is recorded as 0.206.
For `GSPLKKLFASTGL [T9A]`, “normalised enrichment score” read 0.127.
For `GSPLRKLLTSTGL [K5R F8L]`, “normalised enrichment score” read 0.554.
`GAPLKKLFTSTGL [S2A]` — result for “normalised enrichment score”: 0.674.
Under “normalised enrichment score”, `GSPLKKLFTATGL [S10A]` is recorded as 0.341.
For `GSPLKKLFTSAGL [T11A]`, “normalised enrichment score” read -0.374.

Block 4 — technique: universal PBM; form: double-stranded DNA, one strand shown; medium: in vitro; concentration: 600 nM; direction: higher = stronger binding
Target: Sal-like protein 4, full length isoform A (SALL4, Homo sapiens, UniProt Q9UJQ4, residues 1-1053)
Chain of UniProt Q9UJQ4 (whole entry, looked up): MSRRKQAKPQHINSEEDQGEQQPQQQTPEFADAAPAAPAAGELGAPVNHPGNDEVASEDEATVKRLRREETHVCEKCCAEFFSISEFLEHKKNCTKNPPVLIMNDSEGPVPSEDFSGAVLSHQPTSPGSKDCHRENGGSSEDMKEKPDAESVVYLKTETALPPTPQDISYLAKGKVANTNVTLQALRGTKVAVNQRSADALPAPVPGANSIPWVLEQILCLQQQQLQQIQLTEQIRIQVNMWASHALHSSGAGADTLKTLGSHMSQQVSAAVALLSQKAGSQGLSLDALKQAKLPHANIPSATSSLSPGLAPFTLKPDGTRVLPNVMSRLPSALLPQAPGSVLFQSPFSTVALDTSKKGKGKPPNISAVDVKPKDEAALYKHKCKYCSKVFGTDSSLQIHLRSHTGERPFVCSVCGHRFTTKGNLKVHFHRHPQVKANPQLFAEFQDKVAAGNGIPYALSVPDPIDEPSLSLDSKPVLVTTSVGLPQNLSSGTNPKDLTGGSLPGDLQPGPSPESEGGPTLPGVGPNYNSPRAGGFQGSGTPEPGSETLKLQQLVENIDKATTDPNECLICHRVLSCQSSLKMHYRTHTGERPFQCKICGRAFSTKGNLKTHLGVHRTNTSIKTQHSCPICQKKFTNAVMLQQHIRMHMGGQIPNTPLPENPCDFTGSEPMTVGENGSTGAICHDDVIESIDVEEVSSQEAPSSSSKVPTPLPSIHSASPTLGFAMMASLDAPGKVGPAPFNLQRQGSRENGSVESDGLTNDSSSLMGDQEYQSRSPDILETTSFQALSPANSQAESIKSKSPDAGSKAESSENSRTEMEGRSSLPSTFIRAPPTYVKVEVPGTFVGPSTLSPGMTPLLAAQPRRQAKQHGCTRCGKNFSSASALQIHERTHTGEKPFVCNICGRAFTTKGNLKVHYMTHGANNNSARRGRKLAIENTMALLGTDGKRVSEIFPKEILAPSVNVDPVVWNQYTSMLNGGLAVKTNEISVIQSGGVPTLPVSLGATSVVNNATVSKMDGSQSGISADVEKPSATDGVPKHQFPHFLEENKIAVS
Notes: 8-mer, flanks averaged, mean of replicates
With `ACCTTGCA` the E-score was -0.154.
The E-score of `GATAGTGC` is reported as -0.133.
With `GAAAGCAA` the E-score was 0.105.
With `ATTGATCC` the E-score was 0.0908.
`CTACGGTC` has an E-score of -0.308.
With `AATAAAAT` the E-score was 0.436.
For `ATCACCAC`, the E-score was 0.0897.
With `GGGATGAA` the E-score was -0.0577.
With `AGGCGGCA` the E-score was -0.234.
`CTTCTGTC` gave an E-score of -0.0198.
`AGCTCACA` has an E-score of 0.0208.
`ACGTGATC` gave an E-score of -0.0937.
For `AAAGACCG`, the E-score was -0.0283.
`CACGGCGA` has an E-score of -0.194.
With `AATACGGG` the E-score was -0.0134.
With `GACTCCCA` the E-score was -0.167.
`ATCTTTTG` has an E-score of 0.151.
With `GAGCCAAC` the E-score was -0.163.
With `CCCCGTTC` the E-score was -0.226.
The E-score of `ATACAAAT` is reported as 0.349.
With `CAATAGTC` the E-score was 0.0619.
`AAACTAGT` has an E-score of 0.123.
For `TCGACACA`, the E-score was 0.128.
The E-score of `CGACGGTA` is reported as -0.127.
`GTCACAAA` gave an E-score of 0.0612.

Excerpt of the above (block 2):
With `CTAATCCGGAAAAACTACGTGACAGGAACGATGTTC` the fluorescence intensity was 608 a.u.
The fluorescence intensity of `GAACCAATTGTTAATCACACCACCGATAGGCAATAG` is reported as 1310 a.u.
`CTAACATATATTTAATGCGTCACCTGCCTATTCTTC` has a fluorescence intensity of 2170 a.u.
For `CTAGAATTCGTAGGTGCAGGTGAGCATATTGCCTTC`, the fluorescence intensity was 543 a.u.
With `GAATGGTGAAAAAGTATGGTGACGTCTTTACTTTAG` the fluorescence intensity was 587 a.u.
With `GAAAGGCGGGTTTGTGAGGTGAAAAAAAATATATAG` the fluorescence intensity was 587 a.u.
With `TGTACGAAGCTATGGCGCGTGTTTATAGTAGTTAGG` the fluorescence intensity was 575 a.u.
For `GAACCGCTTAATGATCACGCACAAAAAAAAAAATAG`, the fluorescence intensity was 1730 a.u.
The fluorescence intensity of `GAAATGTGACAAGAGGTGGTGACATAAAAATAATAG` is reported as 694 a.u.
`CTACCCGCGAATTTTCACATGCACTTTAATCGATTC` has a fluorescence intensity of 657 a.u.
`GAACAAAGCTCTTAAGTCGTGATCTTCTCTTCTTAG` gave a fluorescence intensity of 600 a.u.
